# Results pooled from the literature.
# Every numbered part comes from another study and shows a few of its results, in no order.

# Block 1
# Target: Histone acetyltransferase KAT6A, winged helix 2, GST fusion (KAT6A, Homo sapiens, UniProt Q92794, residues 85-181)
# Method: protein binding microarray
# Molecule type: double-stranded DNA, one strand shown
# Medium: in vitro
# Concentration: not given
# Setting: 8-mer, flanks averaged, mean of 2 arrays, mostly near background
# Baseline: not given
# Reading: higher = stronger binding
# Residues (chain): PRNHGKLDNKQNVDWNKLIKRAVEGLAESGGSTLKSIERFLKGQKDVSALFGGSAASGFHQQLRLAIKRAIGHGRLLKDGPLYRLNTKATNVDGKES
Sequence,E-score
CACGTATG,-0.0735
CTCGTCAG,0.06
GTAAGTGA,0.0374
CTGGTTGC,0.11
CTCTGCAC,-0.143
CGGATCCG,0.034
GCGATACC,0.00731
AGATCTCC,-0.0359
CTCCTCAG,-0.0115
ACTAAGAC,0.0296
CTGGATGC,0.0279
CATATTCC,-0.184
ATAATGCA,-0.188
AAAGGTAT,-0.157
GAGCACGA,0.0595
GGAAGTTA,0.112
ACTCAGAG,0.219
TGACTCAA,-0.00466

# Block 2
# Target: Interferon regulatory factor 5, full length, phosphomimetic (IRF5, Homo sapiens, UniProt Q13568-2, residues 1-514, S451D/S453D/S456D/S462D)
# Method: protein-binding microarray
# Molecule type: double-stranded DNA, one strand shown
# Medium: in vitro
# Concentration: 940 nM top
# Setting: 60-bp whole probe
# Together with: salmon DNA 0.4 mg/ml
# Baseline: random background probes
# Reading: higher = stronger binding
# All sequences stand within: GCCTAGCAC … GTCTTGATTCGCTTGACGCTGCTG
Sequence,fitted relative affinity [z-score]
TCATTTTTTTCCCTGAAACTGTGCTAG,0.856
GATGATATCGGGTTTCGAGACGTGCTA,1.79
GACGGTTTCGGTATCGGGGCGTGCTAG,14.3
CAGCACAGCTGACTACAAGCGTGCTAG,-0.671
TTAGGTGTCGGTCTCGGTTAGTGCTAG,3.03
GACCGACTGCTTCTCCTGACGTGCTAG,0.0451
TTAGGTCTCGGACAGGGTTAGTGCTAG,0.942
TTAGGTTTCGGGTTACGGTTAGTGCTA,11
TCCCCGGAGCTGGACAGAAGGTGCTAG,-0.742

# Block 3
# Target: RNA binding protein fox-1 homolog 2, RRM domain, GST-SBP tag (RBFOX2, Homo sapiens, UniProt O43251-10, residues 100-194)
# Method: RNA Bind-n-Seq
# Molecule type: RNA
# Medium: in vitro
# Concentration: 365 nM
# Setting: natural RNA segment, single round, ends assumed
# Baseline: no-protein control
# Reading: higher = stronger binding
# All sequences stand within: GGGAGUUCUACAGUCCGACGAUC … UGGAAUUCUCGGGUGCCAA
# Construct (chain): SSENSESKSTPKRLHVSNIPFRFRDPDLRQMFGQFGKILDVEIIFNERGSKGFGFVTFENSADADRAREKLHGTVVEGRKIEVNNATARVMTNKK
Sequence,RBNS enrichment (R)
UUCUGCCCUGCCAGCUGCAGCCUGGUUGGCAGCAUCUGCUCCAUCGGGGCAGGGGGUAUGCAGAGCUUGUGGUGGGGCAGGAACGGUGGAGGCAGAGGUGACAGUUCCCA,0.996
CAAGGUGAAGCAUAAAGAGUCAGCACCAGUGCUUACGUGGCCCCACUGCAUUGUCAGCACUGACCUUGCUUGGUCCUUUCCCUCCUGCUGUCCCUCAGUGCCUUCUCUCA,0.376
UCUAUAUUCCUCUGUCCCGCCCAAACACCAUCUUCACUCCAAGCCUACCACAGAUGCCUGAAGAAGUUCCUCACUAUCUGCAAAUGUGGCUCUCAGGCCCUUCCUGAUGU,0.54
UUAAGAGAACACCUGUGGUUUAAAUGUUCUUUUUCUGCUUCCUUUUCUAUCUGAGAGGUCCUAACCAUUACAGCUAUCACCCCUCGGCUGACAUGGUCUUUCAAGAUUCU,0.427
AAGAGAGCUUCCCAUUGCUUCUGCUCUCCUCAGAGGUCCCGGGCUGGAUGGAGGCUGGUACUUACCCACCCCUUUUAGCUUUUAGGGAUUAAGGAAGGGUCAAGCCAGCC,0.338
UAAACUGUAUCAUACAGUAAUGCCAGCAUUUUUAUUUAAUAGGUCAUCGUCUUCCUUUUAUAGCUGUUUUACUUCAUUGAAUACGAUCAUGUACCCAGUGUUAACUCUUU,0.682
GGGUAUUUCUUCUACCCUAUCUUCUUUCAUUGUCAUUCCAAGGGCAGUAGGCCAAGAAAUUAUCUUUCUGGUUUUUUUCCUCUAAACUCCAUUUGGUUAGCAGACAGUGA,0.332
CCUUGUAAUUGUCUCUGACCUUUUUAUCUGAGACCGGAAUUCAGGAUAGGAGUCUAGAUAUUUACCUGAUACUAAUCAGGAAAUAUAUGAUAUCCGUAUUUAAAAUGUAG,0.379

# Block 4
# Target: Centromere-binding protein 1, full length, N-terminal tag (CBF1, Saccharomyces cerevisiae, UniProt P17106, residues 1-351)
# Chain of UniProt P17106 (whole entry, looked up): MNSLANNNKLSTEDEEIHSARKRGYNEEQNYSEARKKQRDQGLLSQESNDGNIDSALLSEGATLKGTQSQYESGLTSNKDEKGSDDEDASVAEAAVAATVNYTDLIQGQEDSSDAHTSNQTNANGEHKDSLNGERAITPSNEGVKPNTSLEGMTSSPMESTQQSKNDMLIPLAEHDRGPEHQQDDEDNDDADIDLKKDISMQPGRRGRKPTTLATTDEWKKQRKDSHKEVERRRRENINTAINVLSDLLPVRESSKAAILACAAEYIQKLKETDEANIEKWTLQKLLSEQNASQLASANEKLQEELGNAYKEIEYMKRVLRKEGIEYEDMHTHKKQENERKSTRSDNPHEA
# Method: protein-binding microarray
# Molecule type: double-stranded DNA, one strand shown
# Medium: in vitro
# Concentration: 0.8 µM
# Setting: whole 60-bp probe, no competitor
# Reading: higher = stronger binding
# All sequences stand within: … GTCTTGATTCGCTTGACGCTGCTG
Sequence,fluorescence intensity
GAACTAACGACACGGCACGTGATTACTGATCTGTAG,11100 a.u.
CTACAACTTCACGCCCACGTTGAGAGTACATTCTTC,636 a.u.
GAACAGCCGTGCGACCATGTGGTATTTCACCCGTAG,643 a.u.
TGTACGAAGCTATGGGTTGTGATTATAGTAGTTAGG,535 a.u.
GAACCACTAGAATGTCATCAGATGAAAAAGACGTAG,567 a.u.
CTAATTTGAGCATCTCACATGGTTACGAATGTATTC,790 a.u.
CTAGATAGTTATTGTTGCACCTGAGGCAAAAGCTTC,558 a.u.
GAATGTGGACCCCCTCACCTTATACCACTACGTTAG,498 a.u.
GAATACATAAAGAAGAAGGTGACAGAAATTTGCTAG,549 a.u.
GAACTTTAAATCGGTGACGATGCGAAAGCAAATTAG,530 a.u.
CTAGCGCTGCTAAATCATGTGAGTTTAGCGCGTTTC,981 a.u.
GAAATTTTAGTATTGCACGTTCTGTTATTCTTGTAG,661 a.u.
GAACGGAAAAGCTCACGTGTGAAGAAGAAAACATAG,3620 a.u.
CTAATATAACACTCTGATGCAGATTTATGAATATTC,504 a.u.
CTAAATTCACTACGTGACATGATTGGTTGGTGCTTC,851 a.u.
CTAGTATTTTTTGCGAACGTGGAAGTATTTCACTTC,617 a.u.
CTAATAAGCCATTCTGATGTTATCTTCTTGTACTTC,498 a.u.
GAAGTCATTCTACATCATGAATATTAATTTACCTAG,536 a.u.
CTAACTCCCCCTTACCACGACTACAAAGAGCTATTC,518 a.u.

# Block 5
# Target: Hepatocyte nuclear factor 3-alpha (Foxa1, Mus musculus, UniProt P35582, residues 1-468, full length assumed)
# Method: EMSA with sequencing
# Molecule type: double-stranded DNA, one strand shown
# Medium: in vitro
# Concentration: 10 and 20 nM
# Setting: whole designed probe, mean of two concentrations, ends assumed
# Baseline: negative control set to 0
# Reading: higher = stronger binding
# Target sequence (chain): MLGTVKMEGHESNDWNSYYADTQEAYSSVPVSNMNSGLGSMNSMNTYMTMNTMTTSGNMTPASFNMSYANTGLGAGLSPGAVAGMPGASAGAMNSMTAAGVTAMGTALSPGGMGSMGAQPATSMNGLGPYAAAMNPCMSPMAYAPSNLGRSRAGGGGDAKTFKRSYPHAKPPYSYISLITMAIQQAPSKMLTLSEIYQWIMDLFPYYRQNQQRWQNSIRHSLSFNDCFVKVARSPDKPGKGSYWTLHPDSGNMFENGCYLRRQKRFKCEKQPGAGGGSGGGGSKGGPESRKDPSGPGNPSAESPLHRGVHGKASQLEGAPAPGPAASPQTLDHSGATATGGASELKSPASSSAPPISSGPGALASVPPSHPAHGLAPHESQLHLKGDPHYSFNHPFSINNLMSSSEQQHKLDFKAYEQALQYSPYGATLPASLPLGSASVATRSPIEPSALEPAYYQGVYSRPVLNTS
Sequence,normalised bound fraction [ratio]
GTGAGCGGTGCCCATTGATGGGGAACGGTCAGTTCCCTCCATCCTCATCCCAAGCCCAACAGTAGCTTGACTGACAGTGGCCCCCATCCCAGCATAGTTCCAAGAGGCCCTAACTGACCTTGTTTACATTGCATGGAAATGCCTCTGCACTGCAGAACTTTCAGTTTCAGGGTTTTGCAAATTTTATGAGAATTTTCAGACAAGCTGATTTTTAGCTCCTTTCACTGGGATCGTGGGGAC,0.412
GTGAGCGGTGCCCATTGATGGGGAACATCTTTGCTGGGGTTGGGCCATAGCTTGATGGGTATTTGTTGAATGACTAATTATTGACTTATAGGCTAACAGCCTCCTTTGAAGTAGGCTGAGCAAACAAACCATTAAGTGGAACATGGTGTCTAGGTTACACAGCTCACTCATCTGCTAATCACTGGGGCACACTGCTGGTTATTATTACCTGAGACCCTGTTTCACTGGGATCGTGGGGAC,0.509
GTGAGCGGTGCCCATTGATGGGGAACACCCTGTGCACCTTGTCTACGTCAGGGTGCTGTTGAAAGATTATTGAGGCCATGTCTGTAGGAAAGCCAGAGCTTCAAGAACAACAAAAACAATGTAAACAGGACTCCTTTCCTATTCTATTAATTCTATTGAAATTATTGAAAAATAATTGTCCTTGCTTTATTTTAAAATTACATGTATTGGTTTTCATCATTTCACTGGGATCGTGGGGAC,0.197

# Block 6
# Target: Sal-like protein 4, full length isoform B (SALL4, Homo sapiens, UniProt Q9UJQ4-2, residues 1-616)
# Method: universal PBM
# Molecule type: double-stranded DNA, one strand shown
# Medium: in vitro
# Concentration: not given
# Setting: 8-mer, flanks averaged, mean of replicates
# Reading: higher = stronger binding
# Target sequence (chain): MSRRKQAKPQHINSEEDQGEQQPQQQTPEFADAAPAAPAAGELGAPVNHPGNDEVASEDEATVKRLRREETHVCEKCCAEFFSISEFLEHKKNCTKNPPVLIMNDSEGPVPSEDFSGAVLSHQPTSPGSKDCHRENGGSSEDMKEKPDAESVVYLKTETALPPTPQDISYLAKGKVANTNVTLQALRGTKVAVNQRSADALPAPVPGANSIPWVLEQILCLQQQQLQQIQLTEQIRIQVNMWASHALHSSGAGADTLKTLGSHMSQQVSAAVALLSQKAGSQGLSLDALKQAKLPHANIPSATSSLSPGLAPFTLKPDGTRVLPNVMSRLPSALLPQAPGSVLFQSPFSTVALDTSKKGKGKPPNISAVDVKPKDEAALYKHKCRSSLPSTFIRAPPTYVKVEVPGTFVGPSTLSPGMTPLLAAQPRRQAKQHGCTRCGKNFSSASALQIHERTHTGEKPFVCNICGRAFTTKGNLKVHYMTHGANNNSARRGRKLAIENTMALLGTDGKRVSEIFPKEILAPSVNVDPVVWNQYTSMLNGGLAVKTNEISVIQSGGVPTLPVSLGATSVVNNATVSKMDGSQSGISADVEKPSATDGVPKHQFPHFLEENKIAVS
Sequence,E-score
CATCGGCG,-0.275
CGTAGGCC,-0.0642
CACTTCAA,0.138
ACCCCGAC,-0.251
GCTTTCAA,-0.0773
ATAGAATA,0.323
CGTGCATC,-0.312
TAGGTTAA,0.149
TGTAAAAA,0.309
ATTTGCAC,0.139
CTACTCAC,-0.117
TAAACACA,0.188
GGAGAGAA,-0.165
CGACTTGC,-0.152
AGGCTGCG,-0.22
AAGATGAA,0.105
GCTGACAA,0.0364

# Excerpt of the above (block 4):
Sequence,fluorescence intensity
GAACTTTAAATCGGTGACGATGCGAAAGCAAATTAG,530 a.u.
GAACGGAAAAGCTCACGTGTGAAGAAGAAAACATAG,3620 a.u.
GAATACATAAAGAAGAAGGTGACAGAAATTTGCTAG,549 a.u.
CTAGCGCTGCTAAATCATGTGAGTTTAGCGCGTTTC,981 a.u.
CTACAACTTCACGCCCACGTTGAGAGTACATTCTTC,636 a.u.
CTAAATTCACTACGTGACATGATTGGTTGGTGCTTC,851 a.u.
GAACCACTAGAATGTCATCAGATGAAAAAGACGTAG,567 a.u.
TGTACGAAGCTATGGGTTGTGATTATAGTAGTTAGG,535 a.u.
CTAACTCCCCCTTACCACGACTACAAAGAGCTATTC,518 a.u.
GAAATTTTAGTATTGCACGTTCTGTTATTCTTGTAG,661 a.u.
CTAATTTGAGCATCTCACATGGTTACGAATGTATTC,790 a.u.
CTAGTATTTTTTGCGAACGTGGAAGTATTTCACTTC,617 a.u.
